Assay results of several laboratories.
Every numbered part comes from another study and shows a few of its results, in no order. Several values in a cell are separate wells, animals, samples, runs or records.
Sequence of UniProt Q9NQU5 (whole entry, looked up): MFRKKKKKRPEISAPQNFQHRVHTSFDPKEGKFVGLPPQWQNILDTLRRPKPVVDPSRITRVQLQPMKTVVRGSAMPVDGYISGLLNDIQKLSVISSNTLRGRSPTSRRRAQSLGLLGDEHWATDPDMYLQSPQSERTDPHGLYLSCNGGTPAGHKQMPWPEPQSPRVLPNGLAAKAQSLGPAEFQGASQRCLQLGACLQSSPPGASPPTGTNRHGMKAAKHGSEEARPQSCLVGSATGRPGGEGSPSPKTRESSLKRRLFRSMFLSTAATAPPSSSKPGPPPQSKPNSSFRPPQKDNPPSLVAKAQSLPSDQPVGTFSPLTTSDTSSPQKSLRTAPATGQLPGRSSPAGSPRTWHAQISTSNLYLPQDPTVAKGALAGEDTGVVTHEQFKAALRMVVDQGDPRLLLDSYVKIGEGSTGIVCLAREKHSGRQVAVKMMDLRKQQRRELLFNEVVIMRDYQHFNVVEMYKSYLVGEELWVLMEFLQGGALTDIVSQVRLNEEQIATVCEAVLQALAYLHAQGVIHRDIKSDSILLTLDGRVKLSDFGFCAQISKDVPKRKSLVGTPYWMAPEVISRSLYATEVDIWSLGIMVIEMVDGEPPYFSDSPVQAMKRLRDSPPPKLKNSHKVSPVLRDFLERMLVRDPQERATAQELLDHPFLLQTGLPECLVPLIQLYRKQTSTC
Sequence of UniProt Q96SB4 (whole entry, looked up): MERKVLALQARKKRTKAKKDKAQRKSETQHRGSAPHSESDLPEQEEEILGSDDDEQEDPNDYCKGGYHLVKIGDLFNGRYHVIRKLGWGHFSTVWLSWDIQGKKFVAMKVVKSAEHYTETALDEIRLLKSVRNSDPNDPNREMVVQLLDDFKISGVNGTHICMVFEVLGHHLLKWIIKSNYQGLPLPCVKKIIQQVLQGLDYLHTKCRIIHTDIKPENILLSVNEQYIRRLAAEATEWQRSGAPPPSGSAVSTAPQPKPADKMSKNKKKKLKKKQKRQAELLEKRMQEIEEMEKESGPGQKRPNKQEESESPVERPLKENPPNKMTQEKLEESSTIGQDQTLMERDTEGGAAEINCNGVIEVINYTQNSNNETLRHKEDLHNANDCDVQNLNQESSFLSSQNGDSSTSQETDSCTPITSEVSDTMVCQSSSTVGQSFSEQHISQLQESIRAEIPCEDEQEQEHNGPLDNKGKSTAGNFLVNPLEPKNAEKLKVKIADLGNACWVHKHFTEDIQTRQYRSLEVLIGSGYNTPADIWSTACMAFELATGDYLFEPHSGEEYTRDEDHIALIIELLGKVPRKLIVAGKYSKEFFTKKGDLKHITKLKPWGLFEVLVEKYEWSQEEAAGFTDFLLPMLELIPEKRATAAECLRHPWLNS
Sequence of UniProt Q9UF33 (whole entry, looked up): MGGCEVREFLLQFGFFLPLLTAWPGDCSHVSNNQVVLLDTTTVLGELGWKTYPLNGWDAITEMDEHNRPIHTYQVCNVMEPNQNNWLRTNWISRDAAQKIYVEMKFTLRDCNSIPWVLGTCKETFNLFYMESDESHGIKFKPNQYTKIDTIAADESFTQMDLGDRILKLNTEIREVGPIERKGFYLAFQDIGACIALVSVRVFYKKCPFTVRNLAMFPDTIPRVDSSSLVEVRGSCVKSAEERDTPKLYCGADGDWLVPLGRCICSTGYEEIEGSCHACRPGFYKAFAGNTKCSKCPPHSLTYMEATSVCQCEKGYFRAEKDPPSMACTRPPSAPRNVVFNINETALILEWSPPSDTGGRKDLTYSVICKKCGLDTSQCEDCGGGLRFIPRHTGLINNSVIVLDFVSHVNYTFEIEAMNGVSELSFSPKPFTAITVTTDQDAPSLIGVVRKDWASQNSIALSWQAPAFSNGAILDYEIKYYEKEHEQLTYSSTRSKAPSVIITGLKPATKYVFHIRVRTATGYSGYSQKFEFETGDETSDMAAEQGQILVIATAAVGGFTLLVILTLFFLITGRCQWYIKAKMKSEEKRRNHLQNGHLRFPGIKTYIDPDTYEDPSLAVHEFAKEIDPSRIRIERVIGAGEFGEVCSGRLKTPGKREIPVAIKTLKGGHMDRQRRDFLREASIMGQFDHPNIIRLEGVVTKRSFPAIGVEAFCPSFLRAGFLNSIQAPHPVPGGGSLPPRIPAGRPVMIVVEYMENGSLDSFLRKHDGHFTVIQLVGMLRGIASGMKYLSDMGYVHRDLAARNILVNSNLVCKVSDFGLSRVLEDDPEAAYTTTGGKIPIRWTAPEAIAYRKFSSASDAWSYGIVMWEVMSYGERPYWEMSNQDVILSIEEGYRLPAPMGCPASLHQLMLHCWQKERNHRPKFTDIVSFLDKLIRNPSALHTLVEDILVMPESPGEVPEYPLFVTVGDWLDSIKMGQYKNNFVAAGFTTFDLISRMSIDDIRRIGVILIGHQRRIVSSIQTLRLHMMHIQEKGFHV
Sequence of UniProt Q9H3N8 (whole entry, looked up): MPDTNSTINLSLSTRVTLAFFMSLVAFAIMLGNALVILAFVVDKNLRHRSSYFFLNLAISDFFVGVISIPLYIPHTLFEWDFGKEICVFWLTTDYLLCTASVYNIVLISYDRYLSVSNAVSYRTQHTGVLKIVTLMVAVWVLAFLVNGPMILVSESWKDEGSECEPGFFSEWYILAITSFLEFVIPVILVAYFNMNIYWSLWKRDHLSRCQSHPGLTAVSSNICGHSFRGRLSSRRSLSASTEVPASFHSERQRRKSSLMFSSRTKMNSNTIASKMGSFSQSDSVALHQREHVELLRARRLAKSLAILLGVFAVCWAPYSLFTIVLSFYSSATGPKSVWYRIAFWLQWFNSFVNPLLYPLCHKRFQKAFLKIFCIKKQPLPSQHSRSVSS
Sequence of UniProt P54753 (whole entry, looked up): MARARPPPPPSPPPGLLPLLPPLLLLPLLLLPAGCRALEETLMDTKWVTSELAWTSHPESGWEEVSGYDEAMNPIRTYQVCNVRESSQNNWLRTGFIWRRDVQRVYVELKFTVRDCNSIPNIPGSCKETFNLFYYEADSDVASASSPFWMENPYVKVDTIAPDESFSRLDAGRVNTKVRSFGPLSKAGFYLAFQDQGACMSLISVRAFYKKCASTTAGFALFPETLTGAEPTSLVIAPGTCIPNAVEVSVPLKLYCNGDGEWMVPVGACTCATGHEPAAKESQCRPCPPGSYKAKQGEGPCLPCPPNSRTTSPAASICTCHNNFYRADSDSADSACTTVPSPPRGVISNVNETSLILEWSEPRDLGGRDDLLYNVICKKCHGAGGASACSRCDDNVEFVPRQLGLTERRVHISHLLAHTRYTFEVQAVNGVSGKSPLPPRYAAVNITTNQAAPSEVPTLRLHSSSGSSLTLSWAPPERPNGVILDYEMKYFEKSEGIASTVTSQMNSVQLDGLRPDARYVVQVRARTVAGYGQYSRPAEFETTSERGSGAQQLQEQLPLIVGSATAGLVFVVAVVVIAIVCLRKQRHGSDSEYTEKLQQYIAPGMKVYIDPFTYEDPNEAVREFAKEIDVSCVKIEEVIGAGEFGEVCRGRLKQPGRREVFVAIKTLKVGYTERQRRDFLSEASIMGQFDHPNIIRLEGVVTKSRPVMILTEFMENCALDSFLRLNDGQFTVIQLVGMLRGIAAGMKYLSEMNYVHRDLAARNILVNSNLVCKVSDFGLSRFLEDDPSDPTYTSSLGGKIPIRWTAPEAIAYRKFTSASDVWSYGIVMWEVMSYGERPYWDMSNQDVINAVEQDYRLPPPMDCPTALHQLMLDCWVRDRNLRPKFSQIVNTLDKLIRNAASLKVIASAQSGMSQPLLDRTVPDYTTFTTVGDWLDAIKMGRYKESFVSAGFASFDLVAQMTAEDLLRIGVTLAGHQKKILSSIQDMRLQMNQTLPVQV
Sequence of UniProt P49759 (whole entry, looked up): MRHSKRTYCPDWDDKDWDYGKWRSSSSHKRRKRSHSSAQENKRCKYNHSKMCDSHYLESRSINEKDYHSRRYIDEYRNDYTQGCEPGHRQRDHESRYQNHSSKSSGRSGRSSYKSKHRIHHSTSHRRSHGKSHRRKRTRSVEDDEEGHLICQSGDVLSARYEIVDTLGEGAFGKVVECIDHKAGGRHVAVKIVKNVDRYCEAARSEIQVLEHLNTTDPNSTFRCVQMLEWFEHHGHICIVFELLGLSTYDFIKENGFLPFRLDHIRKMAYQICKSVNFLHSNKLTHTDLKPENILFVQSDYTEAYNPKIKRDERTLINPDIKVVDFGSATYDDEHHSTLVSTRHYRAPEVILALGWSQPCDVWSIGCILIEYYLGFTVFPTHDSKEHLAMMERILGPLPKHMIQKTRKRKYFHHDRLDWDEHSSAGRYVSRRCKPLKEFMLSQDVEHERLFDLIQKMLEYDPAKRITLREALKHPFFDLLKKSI
Sequence of UniProt P07550 (whole entry, looked up): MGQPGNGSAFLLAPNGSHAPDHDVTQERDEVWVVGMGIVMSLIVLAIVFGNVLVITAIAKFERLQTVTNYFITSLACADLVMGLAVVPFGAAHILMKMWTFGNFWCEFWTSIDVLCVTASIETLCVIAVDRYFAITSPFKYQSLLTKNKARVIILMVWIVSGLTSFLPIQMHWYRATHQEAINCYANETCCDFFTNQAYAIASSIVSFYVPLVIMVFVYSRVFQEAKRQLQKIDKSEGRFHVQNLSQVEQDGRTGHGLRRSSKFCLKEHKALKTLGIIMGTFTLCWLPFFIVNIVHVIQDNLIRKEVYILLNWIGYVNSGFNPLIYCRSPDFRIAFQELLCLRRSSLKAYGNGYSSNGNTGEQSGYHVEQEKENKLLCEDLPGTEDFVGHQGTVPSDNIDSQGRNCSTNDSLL
Sequence of UniProt P11309 (whole entry, looked up): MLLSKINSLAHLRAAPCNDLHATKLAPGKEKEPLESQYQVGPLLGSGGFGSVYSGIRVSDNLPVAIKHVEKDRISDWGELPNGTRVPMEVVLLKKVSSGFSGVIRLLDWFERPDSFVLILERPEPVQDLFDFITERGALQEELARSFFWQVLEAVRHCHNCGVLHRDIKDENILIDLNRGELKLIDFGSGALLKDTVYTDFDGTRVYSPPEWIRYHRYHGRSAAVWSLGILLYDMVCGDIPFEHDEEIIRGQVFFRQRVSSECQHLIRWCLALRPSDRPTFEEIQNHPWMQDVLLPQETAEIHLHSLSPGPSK

Series 1 — technique: Incucyte 3D growth; tested at: 30 µM; direction: higher = more growth
SMILES: CC(C)(C(=O)O)[C@H](NC(=O)Cc1cccc(I)c1)c1ccc2oc(=O)[nH]c2c1
| cell line | conditions | spheroid area |
| --- | --- | --- |
| NCI-H358 | 132 h | 7.11e+06 a.u. and 5.63e+06 a.u. and 7.59e+06 a.u. and 4.48e+06 a.u. and 5.26e+06 a.u. and 5.3e+06 a.u. |
| MEL-JUSO | 276.52 h | 2.07e+07 a.u. and 1.78e+07 a.u. and 2.52e+07 a.u. and 2.29e+07 a.u. and 2.27e+07 a.u. and 3.77e+07 a.u. |
| NCI-H1437 | 162 h | 3.35e+07 a.u. and 2.98e+07 a.u. and 4.6e+07 a.u. and 3.59e+07 a.u. and 3.34e+07 a.u. and 5.15e+07 a.u. |
| NCI-H358 | 282 h | 1.02e+07 a.u. and 1.25e+07 a.u. and 1.12e+07 a.u. and 9.31e+06 a.u. |
| KP-4 | 78 h | 1.55e+07 a.u. and 1.34e+07 a.u. and 1.75e+07 a.u. and 1.58e+07 a.u. and 1.65e+07 a.u. and 1.39e+07 a.u. |
| NCI-H358 | 36 h | 4.41e+06 a.u. and 3.41e+06 a.u. and 4.18e+06 a.u. and 3.63e+06 a.u. and 4.03e+06 a.u. and 3.88e+06 a.u. |

Series 2 — medium: hydrocarbon/water
| Compound | logD |
| --- | --- |
| CC[C@@H]1NC(=O)[C@@H](CC)NC(=O)[C@H](CC(C)C)NC(=O)[C@H](Cc2ccccc2)NC(=O)[C@H]2CCCN2C(=O)[C@H](CC(C)C)NC1=O | -0.443 |
| CCOC(=O)[C@@H]1CSCC(=O)N[C@H](CC)C(=O)N(C)[C@@H](C)C(=O)N[C@@H](CC(C)C)C(=O)N2CCC[C@@H]2C(=O)N(CC(C)C)CC(=O)N[C@H](CC(C)C)C(=O)N(C)[C@@H](C)C(=O)N[C@@H](CC(C)C)C(=O)N1C | 0.837 |
| CCOC(=O)[C@@H]1CSCC(=O)N[C@H](CC)C(=O)N(CC(C)C)CC(=O)N[C@@H](CC(C)C)C(=O)N(C)[C@H](C)C(=O)N(C)[C@@H](C)C(=O)N[C@H](CC(C)C)C(=O)N(C)[C@@H](C)C(=O)N[C@@H](CC(C)C)C(=O)N1C | 1.62 |
| CCC[C@@H]1NC(=O)CN(CCC)C(=O)[C@H](CC(C)C)NC(=O)Cn2cc(nn2)CN(C)C(=O)[C@H](CC(C)C)NC(=O)[C@H](C)N(C)C(=O)[C@H](CC(C)C)NC(=O)[C@H](C)N(C)C(=O)[C@H]2CCCN2C1=O | -0.638 |
| CC(C)CC1NC(=O)CN(CC2CCOCC2)C(=O)C2CCCN2C(=O)C(CC(C)C)NC(=O)C(C)N(C)C(=O)C(CC(C)C)NC(=O)CN(Cc2ccc3c(c2)OCO3)C(=O)C2CCCN2C(=O)C(C)NC(=O)C(C)N(C)C1=O (centres unmarked) | 1.66 |

Series 3 — effect on: ligand displacement; technique: radioligand; tested at: 10 µM
Compound: Cc1cc(NC(=O)c2cccc(S(F)(F)(F)(F)F)c2)cc(-n2ccn3nc(-c4cccnc4)cc23)c1
| target | inhibition [%] |
| --- | --- |
| Beta-2 adrenergic receptor (ADRB2, Homo sapiens, UniProt P07550) | -6.09 |
| Muscarinic acetylcholine receptor M5 (CHRM5, Homo sapiens, UniProt P08912) | -4.95 |
| 5-hydroxytryptamine receptor 2B (HTR2B, Homo sapiens, UniProt P41595) | 47.1 |
| Beta-1 adrenergic receptor (ADRB1, Homo sapiens, UniProt P08588) | -11.7 |
| D(1A) dopamine receptor (DRD1, Homo sapiens, UniProt P21728) | 1.92 |
| Beta-3 adrenergic receptor (ADRB3, Homo sapiens, UniProt P13945) | 14.3 |
| Histamine H4 receptor (HRH4, Homo sapiens, UniProt Q9H3N8) | 0.0286 |

Series 4 — Structure (SMILES): CCC(=O)Nc1ccc2ncnc(Nc3cccc(Br)c3)c2c1; effect on: enzyme activity; mode: inhibitor; tested at: 0.5 µM; baseline: control
| target | remaining activity [%] |
| --- | --- |
| Serine/threonine-protein kinase pim-1 (PIM1, Homo sapiens, UniProt P11309) | 85.3 |
| Calcium/calmodulin-dependent protein kinase type 1 (CAMK1, Homo sapiens, UniProt Q14012) | 88.9 |
| Serine/threonine-protein kinase PAK 6 (PAK6, Homo sapiens, UniProt Q9NQU5) | 101 |
| Dual specificity protein kinase CLK1 (CLK1, Homo sapiens, UniProt P49759) | 84.5 |
| Serine/threonine-protein kinase PAK 4 (PAK4, Homo sapiens, UniProt O96013) | 105 |
| Tyrosine-protein kinase Tec (TEC, Homo sapiens, UniProt P42680) | 103 |
| Protein kinase C theta type (PRKCQ, Homo sapiens, UniProt Q04759) | 96.3 |
| Maternal embryonic leucine zipper kinase (MELK, Homo sapiens, UniProt Q14680) | 93.4 |
| Muscle, skeletal receptor tyrosine-protein kinase (MUSK, Homo sapiens, UniProt O15146) | 87.8 |
| Dual specificity protein kinase CLK2 (CLK2, Homo sapiens, UniProt P49760) | 101 |
| Insulin-like growth factor 1 receptor (IGF1R, Homo sapiens, UniProt P08069) | 87.5 |
| Dual specificity tyrosine-phosphorylation-regulated kinase 1A (DYRK1A, Homo sapiens, UniProt Q13627) | 89.2 |
| SRSF protein kinase 1 (SRPK1, Homo sapiens, UniProt Q96SB4) | 97 |
| Ephrin type-A receptor 6 (EPHA6, Homo sapiens, UniProt Q9UF33) | 79.5 |
| Tyrosine-protein kinase receptor TYRO3 (TYRO3, Homo sapiens, UniProt Q06418) | 101 |
| Serine/threonine-protein kinase PAK 5 (PAK5, Homo sapiens, UniProt Q9P286) | 91.6 |
| Tyrosine-protein kinase JAK1 (JAK1, Homo sapiens, UniProt P23458) | 96.6 |
| Ephrin type-A receptor 2 (EPHA2, Homo sapiens, UniProt P29317) | 101 |
| Casein kinase I isoform epsilon (CSNK1E, Homo sapiens, UniProt P49674) | 98.2 |
| Cyclin-dependent kinase 5, with p35 (CDK5, Homo sapiens, UniProt Q00535) | 100 |
| Serine/threonine-protein kinase SIK2 (SIK2, Homo sapiens, UniProt Q9H0K1) | 98.7 |
| Ribosomal protein S6 kinase beta-2 (RPS6KB2, Homo sapiens, UniProt Q9UBS0) | 94.9 |
| Serine/threonine-protein kinase Sgk2 (SGK2, Homo sapiens, UniProt Q9HBY8) | 96.2 |
| Receptor tyrosine-protein kinase erbB-2 (ERBB2, Homo sapiens, UniProt P04626) | 34 |
| Ephrin type-B receptor 3 (EPHB3, Homo sapiens, UniProt P54753) | 89.4 |

Series 5 — cell line: HaCaT; tested at: 100 µM; time: 18 h
| SMILES | viability [%] |
| --- | --- |
| COc1cc(C=O)ccc1O | 95.9 |
| CCCCC(O)c1ccccc1 (centres unmarked) | 88.4 |
| CC[C@H](C)C[C@H](C)CCCCCCCCC(=O)N[C@H]1C[C@@H](O)[C@@H](NCCN)NC(=O)[C@@H]2[C@@H](O)CCN2C(=O)[C@H]([C@H](O)CCN)NC(=O)[C@H]([C@H](O)[C@@H](O)c2ccc(O)cc2)NC(=O)[C@@H]2C[C@@H](O)CN2C(=O)[C@H]([C@@H](C)O)NC1=O | 52.5 |
| Nc1cc(-c2ccncc2)c[nH]c1=O | 113 |
| O=C(O)CCn1c2c(c3ccccc31)C[C@H](NS(=O)(=O)c1ccc(F)cc1)CC2 | 84.6 |
| Cc1c(Nc2ncccc2C(=O)O)cccc1C(F)(F)F | 84.6 |
| COc1cc2nccc(Oc3ccc(NC(=O)NC4CC4)c(Cl)c3)c2cc1C(N)=O | 98 |

Series 6 — cell line: HEK293T ATF4-firefly luciferase reporter; effect on: integrated stress response; measured: ATF4; baseline: DMSO
Structure (SMILES): c1ccc2c(-c3nn4c(-c5ccncc5)nnc4s3)c[nH]c2c1
| conditions | reporter signal |
| --- | --- |
| 1 µM, together with: ISRIB | 83.7% and 81.5% and 81.4% and 83.2% and 94.2% and 79.3% and 87.5% and 80.9% |
| 1 µM, without ISRIB | 127% and 122% and 149% and 110% and 121% and 134% |
| 10 µM, together with: ISRIB | 87% and 93.9% and 91.2% and 97.5% and 108% and 117% and 105% |
